Assay results pooled from the literature.
Every numbered part comes from another study and shows a few of its results, in no order. Substitutions count along the parent as printed.

Sample 1 — technique: RNA Bind-n-Seq; form: RNA; sample: in vitro; tested at: 200 nM; notes: whole 134-nt RNA, ends assumed; with: 150 mM KCl; relative to: input library; reading: higher = stronger binding; endpoint: log2 enrichment
Target: Ras GTPase-activating protein-binding protein 1, full length (G3BP1, Homo sapiens, UniProt Q13283)
Chain of UniProt Q13283 (whole entry, looked up): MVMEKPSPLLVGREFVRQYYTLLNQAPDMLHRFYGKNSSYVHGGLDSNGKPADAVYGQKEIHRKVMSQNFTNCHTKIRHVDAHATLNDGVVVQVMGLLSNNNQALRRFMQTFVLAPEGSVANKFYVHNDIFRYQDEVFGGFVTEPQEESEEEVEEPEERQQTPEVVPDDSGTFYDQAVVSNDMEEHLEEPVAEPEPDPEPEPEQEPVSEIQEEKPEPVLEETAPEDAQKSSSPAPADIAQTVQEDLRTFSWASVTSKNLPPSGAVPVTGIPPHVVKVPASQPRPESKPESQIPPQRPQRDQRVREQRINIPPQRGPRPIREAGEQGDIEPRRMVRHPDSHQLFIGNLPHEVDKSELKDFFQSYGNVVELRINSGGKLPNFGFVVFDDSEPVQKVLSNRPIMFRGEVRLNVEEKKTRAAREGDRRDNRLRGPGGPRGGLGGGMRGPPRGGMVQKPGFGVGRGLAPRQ
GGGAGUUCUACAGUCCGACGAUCUAACUUUAGAGGAGGAUCUGAUGGAUAUGGCAGUGGACGUGGAUUUGGGGAUGGCUAUAAUGGGUAUGGAGGAGGAGCUGGAGGUGGCAAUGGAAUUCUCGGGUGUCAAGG: 0.884
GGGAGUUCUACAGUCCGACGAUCCCUGUGCUACACAUCGUAUGUACCGAAUCGGGGCCCCCCGGCCCCCCGGGCCCCCCGGGGAAAGUAUUAUGUUACGCCGUUCGGAUCUGCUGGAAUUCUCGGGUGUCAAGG: -0.432
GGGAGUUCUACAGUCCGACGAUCGUCCUGUGCUACACAUCGUAUGUACCGAAUCGGGAAAGGGAAAAAAAGGGAAAAAGGGAAAGUAUUAUGUUACGCCGUUCGGAUCUGCACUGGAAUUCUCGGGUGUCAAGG: -0.417
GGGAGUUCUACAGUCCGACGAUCUCCUGUGCUACACAUCGUAUGUACCGAAUCGGGGAAAGGGGUUUGGGGUUUUUUUGGGGAAAGUAUUAUGUUACGCCGUUCGGAUCUGCAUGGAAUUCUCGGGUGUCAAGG: 0.752
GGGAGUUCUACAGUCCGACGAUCUAACUUUAGAGGAGGAUCUGAUGGAUAUGGCAGUGGACGUGGAUUUGGGGAUGGGUAUAAUGGGUAUGGAGGAGGACCUGGAGGUGGCAAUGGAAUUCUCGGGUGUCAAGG: 0.73
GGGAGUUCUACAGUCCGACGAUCUCCUCAAGUCCUGUGCUACACAUCGUAUGUACCGAAUCGGAGGAGGGAGGGAAAGUAUUAUGUUACGCCGUUCGGAUCUGCACUUCCAGCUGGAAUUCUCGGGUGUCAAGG: -0.196
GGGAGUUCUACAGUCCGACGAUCAAGUCCUGUGCUACACAUCGUAUGUACCGAAUCGGGUUUUGGGGUUUUGGUUUUGGAAAGUAUUAUGUUACGCCGUUCGGAUCUGCACUUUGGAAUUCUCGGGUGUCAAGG: -0.806
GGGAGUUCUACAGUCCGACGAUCGCAGGAAGUAAAAACAAAUGGAAAUGCUUCGGAUAGUGGCAGGGGUGGGGGUUGCUAAGGAAAGGGUGGGAUGGGAGUGGGUAAAGGGUUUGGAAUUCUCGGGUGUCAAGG: 0.911

Sample 2 — technique: protein-binding microarray; form: double-stranded DNA, one strand shown; sample: in vitro; tested at: 940 nM top; notes: 60-bp whole probe; with: salmon DNA 0.4 mg/ml; relative to: random background probes; reading: higher = stronger binding; endpoint: fitted relative affinity; all sequences stand within: GCCTAGCAC … GTCTTGATTCGCTTGACGCTGCTG
Target: Interferon regulatory factor 5, full length, phosphomimetic (IRF5, Homo sapiens, UniProt Q13568-2, residues 1-514, S451D/S453D/S456D/S462D)
GACGGACTGGGGACTGAGGACGTGCTA: -0.424 z-score
TCAACTGTGTGTTTGAGACTGTGCTAG: -0.588 z-score
AGTATGTTCACTATTTAAGAGTGCTAG: -0.0996 z-score
GACGGTTCCCTTTTCCTGATGTGCTAG: 0.733 z-score
ACCTATGTGTACCACTAGACGTGCTAG: -0.263 z-score
GGCGGACTGGGTCTCGGGACGTGCTAG: -0.395 z-score
TCAACTTGTCTTTTCATACTGTGCTAG: 0.768 z-score
GACGGACTGGGGTATCGAGACGTGCTA: 0.743 z-score
TTAGGACTGGGTATCGGTAAGTGCTAG: 2.41 z-score

Sample 3 — target: CCND3, cyclin fold, Cln2 fusion (human); technique: yeast growth competition, sequencing; sample: yeast; notes: weak parent motif; relative to: not given; reading: higher = stronger binding; endpoint: normalised enrichment score
Parent: E2F1 docking peptide (human); PPVKRRLDLETDH
K4V: 0.181
P1F: 0.235
D12L: 0.106
P2A: 0.0482
L7M: 0.102
H13N: 0.0313
H13W: 0.127
D8G: 0.182
V3K: 0.179
E10K: 0.0289

Single results of other studies
PhoQ, residues 284 288 289 292 302 303 ASVMEA — fold induction (PhoP, residues 12 14 15 18 19 NIMAP (Escherichia coli, UniProt P23836); Sort-seq, refers to: YFP reporter; E. coli; PhoQ-PhoP variant library, with: 10 µM Mg2+; relative to: high Mg2+ state, higher = stronger signaling): 0.521

Excerpt of the above (sample 1):
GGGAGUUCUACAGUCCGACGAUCUAACUUUAGAGGAGGAUCUGAUGGAUAUGGCAGUGGACGUGGAUUUGGGGAUGGGUAUAAUGGGUAUGGAGGAGGACCUGGAGGUGGCAAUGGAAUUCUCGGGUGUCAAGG: 0.73
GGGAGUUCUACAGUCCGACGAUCUCCUCAAGUCCUGUGCUACACAUCGUAUGUACCGAAUCGGAGGAGGGAGGGAAAGUAUUAUGUUACGCCGUUCGGAUCUGCACUUCCAGCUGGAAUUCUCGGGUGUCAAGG: -0.196
